# Published values pooled from the literature.
# Compare with care: the assays were run in different laboratories. “And” joins repeats or separate records; there may be more than shown.
Structure (SMILES),organism,assay,test system,setting,how to read,endpoint,value
CCOc1c(NC(=O)c2ccc(NC(=O)c3ccc(NC(=O)[C@H](Cc4c[nH]nn4)NC(=O)c4ccc(NC(=O)/C(C)=C/c5ccc(O)cc5)cc4)cc3)c(OC)c2O)ccc(C(=O)O)c1O,Salmonella enterica serovar Kentucky,broth microdilution,ciprofloxacin-resistant,,,MIC,63 ng/mL
C=C(NC(=O)c1csc(-c2nc3c(cc2O)-c2nc(cs2)C(=O)NC(C(C)O)C(=O)NC(=C(C)OC)c2nc(cs2)C(=O)NC2c4nc(cs4)C(=O)NC(COC(=O)c4c5c6c(cccc6n4O)COC(=O)C(OC4CC(C)(O)C(N(C)C)C(C)O4)C2OC5)c2nc-3cs2)n1)C(N)=O (centres unmarked),Staphylococcus epidermidis,,"MRSE-37, methicillin-resistant",,,MIC,7.8 ng/mL
CC[C@H]1OC(=O)[C@H](C)[C@@H](OC(=O)Cc2cccc(Cl)c2)[C@H](C)[C@@H](O[C@@H]2O[C@H](C)C[C@H](N(C)C)[C@H]2O)[C@](C)(OC)C[C@@H](C)C(=O)[C@H](C)[C@@H](O)[C@]1(C)O,Cryptococcus neoformans,microbial growth,ATCC208821,,,MIC,> 32000 ng/mL
Cc1c(CN(C)C(=O)/C=C/c2cnc3c(c2)CC(N)C(=O)N3)oc2ccccc12 (centres unmarked),Klebsiella pneumoniae,broth microdilution,AR-0560,,,MIC,32000 ng/mL
C/C(=C\c1ccc(O)cc1)C(=O)Nc1ccc(C(=O)N[C@@H](Cc2c[nH]nn2)C(=O)Nc2ccc(C(=O)Nc3ccc(C(=O)Nc4ccc(C(=O)O)c(O)c4)c(O)c3)cc2)cc1,Salmonella Typhimurium,broth microdilution,TA100,,,MIC,16 ng/mL
CCCCC(=O)NC(c1ccc(N(CC)CC)cc1)c1ccc2cccnc2c1O (centres unmarked),Trypanosoma cruzi,"reporter mRNA translation, inhibitor, item: Renilla luciferase mRNA",cell-free extract,"concentration not given, test 2",relative to: positive over negative control,translation activity,106% and 131%
CC[C@H]1OC(=O)[C@H](C)[C@@H](OC(=O)Cc2ccccc2Cl)[C@H](C)[C@@H](O[C@@H]2O[C@H](C)C[C@H](N(C)C)[C@H]2O)[C@](C)(OC)C[C@@H](C)C(=O)[C@H](C)[C@@H](O)[C@]1(C)O,Cryptococcus neoformans,microbial growth,ATCC208821,,,MIC,> 32000 ng/mL
C/C(=C\c1ccc(O)cc1)C(=O)Nc1ccc(C(=O)N[C@@H](Cc2c[nH]nn2)C(=O)Nc2ccc(C(=O)Nc3ccc(C(=O)Nc4ccc(C(=O)O)cc4)cc3)cc2)cc1,Salmonella Typhimurium,broth microdilution,TA100,,,MIC,31 ng/mL
CC[C@H]1OC(=O)[C@H](C)[C@@H](OC(=O)Cc2ccccc2[N+](=O)[O-])[C@H](C)[C@@H](O[C@@H]2O[C@H](C)C[C@H](N(C)C)[C@H]2O)[C@](C)(OC)C[C@@H](C)C(=O)[C@H](C)[C@@H](O)[C@]1(C)O,Cryptococcus neoformans,microbial growth,ATCC208821,,,MIC,> 32000 ng/mL
c1ccc2c(c1)nc(CNCC13CC4CC(CC(C4)C1)C3)n2CCOC1CCCCC1,Streptococcus pneumoniae,,ATCC 49619,,,MIC,4000 ng/mL
CCCC/C=C/C(=O)N[C@@H](Cc1cc(F)cc(F)c1)C(=O)N[C@@H]1C(=O)N2CCC[C@H]2C(=O)N2CCCC[C@H]2C(=O)N[C@@H](C)C(=O)N2CCC[C@H]2C(=O)O[C@H]1C,Streptococcus pneumoniae,"microbial growth, broth dilution",,,,MIC,< 0.02 ng/mL
Fc1ccccc1N1CCN(C2CCCN(Cc3cccc(C(F)(F)F)c3)C2)CC1 (centres unmarked),Trypanosoma cruzi,"reporter mRNA translation, inhibitor, item: Renilla luciferase mRNA",cell-free extract,"concentration not given, test 2",relative to: positive over negative control,translation activity,91.1% and 136%
CC[C@H]1OC(=O)[C@H](C)[C@@H](OC(=O)Cc2ccc(N)cc2)[C@H](C)[C@@H](O[C@@H]2O[C@H](C)C[C@H](N(C)C)[C@H]2O)[C@](C)(OC)C[C@@H](C)C(=O)[C@H](C)[C@@H](O)[C@]1(C)O,Cryptococcus neoformans,microbial growth,ATCC208821,,,MIC,> 32000 ng/mL
C=C[C@]1(C)C[C@@H](OC(=O)CSc2ccc(NC(=O)c3ccco3)cc2)[C@]2(C)[C@H](C)CC[C@]3(CCC(=O)[C@H]32)[C@@H](C)[C@@H]1O,Mycoplasma gallisepticum,,chicken lung isolates,5 mg/kg to chickens,,MIC,1.95 ng/mL

# Excerpt of the above:
Structure (SMILES),organism,assay,test system,setting,how to read,endpoint,value
CC[C@H]1OC(=O)[C@H](C)[C@@H](OC(=O)Cc2cccc(Cl)c2)[C@H](C)[C@@H](O[C@@H]2O[C@H](C)C[C@H](N(C)C)[C@H]2O)[C@](C)(OC)C[C@@H](C)C(=O)[C@H](C)[C@@H](O)[C@]1(C)O,Cryptococcus neoformans,microbial growth,ATCC208821,,,MIC,> 32000 ng/mL
